Experimental data collected from several papers.
Lines come from different studies, so protocols differ. Values joined by “and” are separate records of one study, mostly repeats; a detail may differ. ± gives the spread as reported.
Sodium- and chloride-dependent glycine transporter 2: Sodium- and chloride-dependent glycine transporter 2 (Homo sapiens, UniProt Q9Y345)
Gria1/Gria2: Glutamate receptor AMPA 1/2 (Gria1/Gria2, Rattus norvegicus, UniProt P19490+P19491)

CCCCCCCO[C@H]1CO[C@H](CO)[C@@H](O)[C@H](O)[C@@H]1O — ΔG (Type 1 fimbrin D-mannose specific adhesin, lectin domain (fimH, Escherichia coli K-12, UniProt P08191); binding, isothermal titration calorimetry; 25 °C, global fit of two titrations): -8.96 kcal/mol
COCCOc1cc2ncnc(Nc3cccc(-c4cn(-c5ccccc5S(N)(=O)=O)nn4)c3)c2cc1OCCOC — selectivity ratio (CA12 (Homo sapiens, UniProt O43570); reference: Ki hCA I over Ki hCA XII): 125
Fc1ccc(Nc2nc(NC3CCCCC3)c3ccccc3n2)cc1F — maximal inhibition (ADRB2 (Homo sapiens, UniProt P07550, V152G); β-arrestin2 recruitment, antagonist, BRET; mutant V152G; reference: isoprenaline maximal response): 6.6%
CC(=O)c1cnc(NS(=O)(=O)c2ccc(C(F)(F)F)c(Cl)c2)nc1 — oxidized product ratio (17-beta-hydroxysteroid dehydrogenase 13 (Homo sapiens, UniProt Q7Z5P4); enzyme activity; human hepatocytes, HSD17B13 siRNA, culture medium; 24 h; reference: scramble siRNA control): 0.149 and 0.161 and 0.181 and 0.184
OC[C@@H]1[C@@H](O)[C@H](O)[C@@H](O)c2nccn21 — ΔH (bglA (Thermotoga maritima, UniProt Q08638); ITC; pH 6.8, 25 °C): -12.6 ± 0.287 kcal/mol
COC(=O)[C@@]1(C)C=C(C(=O)Nc2cccc(C(=O)Nc3ccc(Nc4nccc(-c5cccnc5)n4)c(C)c3)c2)C(=O)CC1 — remaining activity (MAPK8 (Homo sapiens, UniProt P45983); enzyme activity, inhibitor; 0.5487 µM, 18 h, unit not given, added: GSH 10 mM pre-incubation; reference: vehicle): 0.103
Cc1ccc(NC(=O)CCC(=O)N/N=C/c2ccc([N+](=O)[O-])o2)cc1C — translation activity (Trypanosoma cruzi; reporter mRNA translation, inhibitor, refers to: Renilla luciferase mRNA; cell-free extract; concentration not given, test 2; reference: positive over negative control): 121% and 113%
CN(Cc1cc(C2CC2)on1)C(=O)c1cccc(-c2ccc3c(c2)CCO3)c1 — reaction rate (Acetyl-CoA synthetase (Cryptococcus neoformans, UniProt J9VFT1); enzyme activity, inhibitor, coupled pyrophosphate; 3.13 µM; higher is more activity): 0.00191 a.u.
CCCCCC(O)/C=C/C=O (stereo not drawn) — isoTOP-ABPP competition ratio (Isoleucine--tRNA ligase, cytoplasmic (Homo sapiens, UniProt P41252); competitive isoTOP-ABPP, refers to: IARS cysteine peptide; proteome, soluble, MDA-MB-231; 100 µM, added: iodoacetamide probe; reference: DMSO over compound-treated, higher = stronger cysteine blockade): 1.7
N#Cc1cnc2sc(C(=O)O)cc2c1N1CCc2[nH]nc(C(=O)N[C@@H](CC(=O)NCCOCCN3CCOCC3)c3cccc(Br)c3)c2C1 — remaining activity (IL1R1 (Homo sapiens, UniProt P14778); SEAP reporter gene, antagonist; HEK-Blue IL-36R cells; 11.11 µM, 6 h, added: IL-1β 5 ng/mL; reference: untreated): 118%
CC(=O)NCCCC[C@H](NC(=O)CNC(=O)CNC(=O)[C@@H](NC(=O)[C@H](CO)NC(=O)[C@H](CCCCN)NC(=O)[C@H](CCCNC(=N)N)NC(=O)[C@H](C)NC(=O)[C@@H](NC(=O)[C@H](CCC(N)=O)NC(=O)[C@H](CCCCN)NC(=O)[C@@H](NC(=O)[C@H](CCCNC(=N)N)NC(=O)[C@H](C)N)[C@@H](C)O)[C@@H](C)O)[C@@H](C)O)C(=O)N[C@@H](C)C(=O)N1CCC[C@H]1C(=O)N[C@@H](CCCNC(=N)N)C(=O)N[C@@H](CCCCN)C(=O)N[C@@H](CCC(N)=O)C(=O)O — ΔTm (YEATS domain-containing protein 4 (Homo sapiens, UniProt O95619, E109A); differential scanning fluorimetry; added: 50 µM peptide; reference: buffer-only reference): 0.32 °C
CCN(CC)C(=O)c1ccc(O)c(OC)c1 — bound ligand fraction (Heat shock protein HSP 90-alpha, N-terminal domain (HSP90AA1, Homo sapiens, UniProt P07900); binding, ligand-observed NMR titration; 9.69 µM, ligand to protein ratio 548): 0.16
COc1ccc(C2(O)CCN(CCCCC3=C4C(C)=CC(C)=[N+]4[B-](F)(F)n4c(C)cc(C)c43)CC2)cc1 — remaining specific binding (Sodium- and chloride-dependent glycine transporter 2; MS binding competition; 10 µM): 63.8 ± 4.9%
CC(=O)Nc1ccccc1-c1ccc(O)cc1 — inhibition after jump dilution (Uridine nucleoside ribohydrolase (Trichomonas vaginalis, UniProt A2FTT0); enzyme activity, 19F NMR; 200 µM, 1-fold dilution): 100%
CC[C@H](C)[C@H](NC(=O)[C@@H](N)CCC(N)=O)C(=O)N[C@@H](CCCNC(=N)N)C(=O)N[C@@H](CO)C(=O)N[C@@H](Cc1c[nH]cn1)C(=O)N[C@@H](COP(=O)(O)O)C(=O)N[C@@H](Cc1ccc(O)cc1)C(=O)N[C@@H](CC(C)C)C(=O)N[C@@H](CCCNC(=N)N)C(=O)N[C@@H](C)C(=O)N[C@H](C(=O)N[C@@H](CO)C(=O)N[C@@H](CCC(=O)O)C(=O)N[C@H](C(=O)N[C@@H](CO)C(=O)O)C(C)C)C(C)C — ΔS (Membrane-associated guanylate kinase, WW and PDZ domain-containing protein 2 (Magi2, Mus musculus, UniProt Q9WVQ1); binding, ITC; pH 8.0, 25 °C): -10.1 cal/mol/K
COc1cc2nc(Cl)nc(Nc3ccc(Oc4cccc(-c5ccccc5)c4)cc3)c2cc1OC — activity (SMUG1 (Homo sapiens, UniProt Q53HV7); enzyme activity, activator, fluorescence; 2 µM; reference: control): 1200 ± 200%
O=C(NCCCCOP(=O)(O)OP(=O)(O)OP(=O)(O)O)OCC1c2ccccc2-c2ccccc21 — kcat (POLL (Homo sapiens, UniProt Q9UGP5, Y505A); substrate, primer extension gel; Y505A mutant, AP-site template): 6.67e-05 s⁻¹
COc1ccccc1C1(O)CCN(CCCCCC2=C3C(C)=CC(C)=[N+]3[B-](F)(F)n3c(C)cc(C)c32)CC1 — remaining specific binding (Sodium- and chloride-dependent glycine transporter 2; MS binding competition; 10 µM): 48.9 ± 5.5%
CCCCCCCCCCCCCCCC(=O)NCCCC[C@H](NC(=O)[C@H](CCC(=O)O)NC(=O)[C@H](Cc1ccc(O)cc1)NC(=O)[C@H](CCC(=O)O)NC(=O)COCC(=O)NCCCOCCOCCOCCCNC(=O)[C@H](Cc1c[nH]c2ccccc12)NC(=O)[C@H](CCCCN)NC(=O)[C@H](C)NC(=O)[C@H](CCCCNC(=N)N)NC(=O)[C@H](CCC(N)=O)NC(=O)[C@H](Cc1c[nH]cn1)NC(=O)[C@H](CCSC)NC(=O)[C@H](CC(C)C)NC(=O)[C@H](CCC(N)=O)NC(=O)[C@@H](NC(=O)[C@H](CCC(=O)O)NC(=O)C(C)(C)NC(=O)[C@@H](NC(=O)C(C)(C)N)C(C)C)[C@@H](C)CC)C(=O)N[C@@H](CCC(=O)O)C(=O)N[C@@H](Cc1ccc(O)cc1)C(=O)N[C@@H](CCC(=O)O)C(N)=O — cAMP luminescence AUC (PTH1R (Homo sapiens, UniProt Q03431); agonist; Saos-2 with cAMP reporter; 3.16 nM, 30 min, ligand-on phase; higher = more cAMP): 84.3 a.u.
O=C(O)Cc1cc2c(cc1C(=O)c1cccc(Cl)c1)OCO2 — current amplitude (Gria1/Gria2; glutamate-evoked current, whole-cell patch clamp; HEK-293T; concentration not given, pH 7.4, holding potential -60 mV, added: 10 mM glutamate): 74 ± 5 pA
Cc1cc(=O)oc2cc(NC(=O)CCCCCCCC(=O)NO)ccc12 — binding stoichiometry (HDAC8 (Homo sapiens, UniProt Q9BY41); ITC; phosphate buffer; concentration not given, pH 7.5): 0.8
CC(C)Oc1cc(Cl)ccc1CNc1cc(-c2ccccc2)nc2ncnn12 — cAMP luminescence (GPR3 (Homo sapiens, UniProt P46089, L136A); cAMP level, cAMP GloSensor; 100 pM; higher = more cAMP): 52900 a.u. and 39400 a.u. and 49700 a.u. and 57400 a.u.
O=C1c2sc(-c3ccc(N4CCC(CO)CC4)nc3F)nc2CCN1c1cccnc1 — specific binding (TAR DNA-binding protein 43, aggregated (TARDBP, Homo sapiens, UniProt Q13148); radioligand binding; human, FTLD-TDP type B sarkosyl-insoluble extract; 9.68 nM): 1.09 nM and 1.15 nM
C=CC(=O)N1CCCC(n2c(=O)c3ncccc3n(Cc3ccc(Oc4ccccc4)cc3)c2=O)C1 (stereo not drawn) — melting temperature (26S proteasome regulatory subunit 6A (Homo sapiens, UniProt P17980); thermal proteome profiling, refers to: PSMC3; treated): 46.8 °C and 40.4 °C
CCCCCCCCCCCCCCCc1cccc(OCC)c1C(=O)Nc1ccc(Cl)c(C(F)(F)F)c1 — SPR binding response (KAT5 (Homo sapiens, UniProt Q92993); SPR; 0.21 µM; higher = more binding): 0.139 RU
COC(=O)Cc1cc2c(cc1C(=O)c1ccccc1)OCO2 — desensitization time constant (Gria1/Gria2; glutamate-evoked current, whole-cell patch clamp; HEK-293T; concentration not given, weighted tau, 500 ms pulse, added: glutamate): 5.1 ± 0.3 ms
CCCCCC=CC=C1C(=O)C=CC1CC=CCCCC(=O)O (stereo not drawn) — isoTOP-ABPP competition ratio (HDAC6 (Homo sapiens, UniProt Q9UBN7); competitive isoTOP-ABPP; Ramos soluble proteome; 100 µM, added: iodoacetamide probe; reference: DMSO over compound-treated, higher = stronger cysteine blockade): 2
COC(=O)Cc1cc2c(cc1C(=O)c1ccccc1Br)OCO2 — current amplitude (Gria1/Gria2; glutamate-evoked current, whole-cell patch clamp; HEK-293T; concentration not given, pH 7.4, holding potential -60 mV, added: 10 mM glutamate): 235 ± 16 pA
CN1CCc2c(sc3c2c(=O)n(-c2ccccc2)c2nnc(SCc4ccccc4)n32)C1 — translation activity (Trypanosoma cruzi; reporter mRNA translation, inhibitor, refers to: Renilla luciferase mRNA; cell-free extract; concentration not given, test 2; reference: positive over negative control): 103% and 94.3%
CCOC(=O)c1ccc2c(c1)C1CC(C)(N2)c2c(C)nc3ccc(C(=O)OCC)cc3c21 (single isomer, unassigned) — koff (Glideosome-associated protein 50 (GAP50, Plasmodium falciparum, UniProt Q8I2X3); binding, surface plasmon resonance; 1:1 binding model): 0.548 s⁻¹

Some of these lines once more:
COC(=O)Cc1cc2c(cc1C(=O)c1ccccc1)OCO2 — desensitization time constant (Gria1/Gria2; glutamate-evoked current, whole-cell patch clamp; HEK-293T; concentration not given, weighted tau, 500 ms pulse, added: glutamate): 5.1 ± 0.3 ms
N#Cc1cnc2sc(C(=O)O)cc2c1N1CCc2[nH]nc(C(=O)N[C@@H](CC(=O)NCCOCCN3CCOCC3)c3cccc(Br)c3)c2C1 — remaining activity (IL1R1 (Homo sapiens, UniProt P14778); SEAP reporter gene, antagonist; HEK-Blue IL-36R cells; 11.11 µM, 6 h, added: IL-1β 5 ng/mL; reference: untreated): 118%
CN1CCc2c(sc3c2c(=O)n(-c2ccccc2)c2nnc(SCc4ccccc4)n32)C1 — translation activity (Trypanosoma cruzi; reporter mRNA translation, inhibitor, refers to: Renilla luciferase mRNA; cell-free extract; concentration not given, test 2; reference: positive over negative control): 103% and 94.3%
CCCCCCCCCCCCCCCC(=O)NCCCC[C@H](NC(=O)[C@H](CCC(=O)O)NC(=O)[C@H](Cc1ccc(O)cc1)NC(=O)[C@H](CCC(=O)O)NC(=O)COCC(=O)NCCCOCCOCCOCCCNC(=O)[C@H](Cc1c[nH]c2ccccc12)NC(=O)[C@H](CCCCN)NC(=O)[C@H](C)NC(=O)[C@H](CCCCNC(=N)N)NC(=O)[C@H](CCC(N)=O)NC(=O)[C@H](Cc1c[nH]cn1)NC(=O)[C@H](CCSC)NC(=O)[C@H](CC(C)C)NC(=O)[C@H](CCC(N)=O)NC(=O)[C@@H](NC(=O)[C@H](CCC(=O)O)NC(=O)C(C)(C)NC(=O)[C@@H](NC(=O)C(C)(C)N)C(C)C)[C@@H](C)CC)C(=O)N[C@@H](CCC(=O)O)C(=O)N[C@@H](Cc1ccc(O)cc1)C(=O)N[C@@H](CCC(=O)O)C(N)=O — cAMP luminescence AUC (PTH1R (Homo sapiens, UniProt Q03431); agonist; Saos-2 with cAMP reporter; 3.16 nM, 30 min, ligand-on phase; higher = more cAMP): 84.3 a.u.
